Published values of several laboratories.
Numbered parts are unrelated; each lists some results of a single study.
UniProt P54764, sequence (whole entry, looked up): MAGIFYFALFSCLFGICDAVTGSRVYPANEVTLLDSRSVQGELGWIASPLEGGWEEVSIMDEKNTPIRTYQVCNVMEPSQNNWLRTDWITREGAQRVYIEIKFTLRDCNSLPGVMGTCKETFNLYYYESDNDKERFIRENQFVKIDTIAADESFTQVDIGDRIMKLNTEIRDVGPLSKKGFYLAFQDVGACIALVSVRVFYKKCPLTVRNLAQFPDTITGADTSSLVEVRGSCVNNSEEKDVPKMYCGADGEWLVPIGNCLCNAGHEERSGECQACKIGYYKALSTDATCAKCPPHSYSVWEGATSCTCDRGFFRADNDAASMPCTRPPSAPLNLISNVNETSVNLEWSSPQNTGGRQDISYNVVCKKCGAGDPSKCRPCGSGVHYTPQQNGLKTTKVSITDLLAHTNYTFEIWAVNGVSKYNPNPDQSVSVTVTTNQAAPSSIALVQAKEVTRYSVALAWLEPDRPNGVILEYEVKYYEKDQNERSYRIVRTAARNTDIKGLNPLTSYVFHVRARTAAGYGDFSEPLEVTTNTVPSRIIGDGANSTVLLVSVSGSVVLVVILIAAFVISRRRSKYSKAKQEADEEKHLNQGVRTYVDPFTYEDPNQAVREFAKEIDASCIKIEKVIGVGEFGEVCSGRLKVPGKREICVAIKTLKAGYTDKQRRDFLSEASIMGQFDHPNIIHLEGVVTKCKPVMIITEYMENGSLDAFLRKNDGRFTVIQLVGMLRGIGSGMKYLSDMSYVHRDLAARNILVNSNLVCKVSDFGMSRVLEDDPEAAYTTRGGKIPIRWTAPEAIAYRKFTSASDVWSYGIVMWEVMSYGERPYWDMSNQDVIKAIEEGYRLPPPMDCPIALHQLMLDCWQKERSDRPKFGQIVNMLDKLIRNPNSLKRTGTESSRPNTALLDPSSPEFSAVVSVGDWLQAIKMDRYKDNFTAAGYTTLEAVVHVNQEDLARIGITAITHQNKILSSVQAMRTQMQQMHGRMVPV
UniProt Q15569, sequence (whole entry, looked up): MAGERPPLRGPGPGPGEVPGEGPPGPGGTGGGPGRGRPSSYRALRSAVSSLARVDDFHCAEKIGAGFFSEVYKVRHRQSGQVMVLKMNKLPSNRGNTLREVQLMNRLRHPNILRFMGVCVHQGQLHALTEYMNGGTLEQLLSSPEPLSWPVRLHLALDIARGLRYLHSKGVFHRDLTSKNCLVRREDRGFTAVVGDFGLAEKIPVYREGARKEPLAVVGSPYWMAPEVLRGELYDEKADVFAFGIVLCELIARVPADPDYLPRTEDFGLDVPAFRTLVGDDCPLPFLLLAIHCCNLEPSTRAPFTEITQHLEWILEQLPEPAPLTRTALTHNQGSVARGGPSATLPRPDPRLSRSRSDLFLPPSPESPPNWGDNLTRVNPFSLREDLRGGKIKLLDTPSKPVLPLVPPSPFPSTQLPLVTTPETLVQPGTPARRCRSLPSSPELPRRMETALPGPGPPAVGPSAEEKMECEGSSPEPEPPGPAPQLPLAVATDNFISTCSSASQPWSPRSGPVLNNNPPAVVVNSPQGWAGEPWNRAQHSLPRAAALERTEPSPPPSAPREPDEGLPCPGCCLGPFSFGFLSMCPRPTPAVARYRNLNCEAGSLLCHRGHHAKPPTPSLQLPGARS
UniProt P45983, sequence (whole entry, looked up): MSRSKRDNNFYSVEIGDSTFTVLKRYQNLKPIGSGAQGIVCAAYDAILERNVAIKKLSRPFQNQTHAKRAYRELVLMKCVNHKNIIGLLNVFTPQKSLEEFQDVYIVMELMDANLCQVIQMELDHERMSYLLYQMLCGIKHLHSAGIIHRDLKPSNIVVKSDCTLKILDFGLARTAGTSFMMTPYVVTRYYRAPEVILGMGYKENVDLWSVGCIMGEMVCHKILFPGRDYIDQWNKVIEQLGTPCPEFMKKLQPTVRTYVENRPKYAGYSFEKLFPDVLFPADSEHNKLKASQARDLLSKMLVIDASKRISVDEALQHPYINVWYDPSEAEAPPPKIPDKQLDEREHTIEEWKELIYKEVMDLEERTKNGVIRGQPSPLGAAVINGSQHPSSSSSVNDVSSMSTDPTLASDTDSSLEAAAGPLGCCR
UniProt Q92772, sequence (whole entry, looked up): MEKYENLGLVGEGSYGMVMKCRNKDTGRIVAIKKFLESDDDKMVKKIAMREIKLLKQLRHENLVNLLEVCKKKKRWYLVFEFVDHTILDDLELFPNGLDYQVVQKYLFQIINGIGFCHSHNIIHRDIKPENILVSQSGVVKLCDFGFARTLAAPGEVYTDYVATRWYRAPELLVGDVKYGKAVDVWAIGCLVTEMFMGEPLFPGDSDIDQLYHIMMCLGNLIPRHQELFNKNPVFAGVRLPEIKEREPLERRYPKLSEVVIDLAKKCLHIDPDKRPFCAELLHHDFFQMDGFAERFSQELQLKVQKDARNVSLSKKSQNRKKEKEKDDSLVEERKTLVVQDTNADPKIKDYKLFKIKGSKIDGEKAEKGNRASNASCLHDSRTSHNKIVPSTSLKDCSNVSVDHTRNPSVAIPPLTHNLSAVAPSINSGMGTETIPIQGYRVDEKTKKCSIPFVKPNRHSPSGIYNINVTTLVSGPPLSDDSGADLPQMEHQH
UniProt P42685, sequence (whole entry, looked up): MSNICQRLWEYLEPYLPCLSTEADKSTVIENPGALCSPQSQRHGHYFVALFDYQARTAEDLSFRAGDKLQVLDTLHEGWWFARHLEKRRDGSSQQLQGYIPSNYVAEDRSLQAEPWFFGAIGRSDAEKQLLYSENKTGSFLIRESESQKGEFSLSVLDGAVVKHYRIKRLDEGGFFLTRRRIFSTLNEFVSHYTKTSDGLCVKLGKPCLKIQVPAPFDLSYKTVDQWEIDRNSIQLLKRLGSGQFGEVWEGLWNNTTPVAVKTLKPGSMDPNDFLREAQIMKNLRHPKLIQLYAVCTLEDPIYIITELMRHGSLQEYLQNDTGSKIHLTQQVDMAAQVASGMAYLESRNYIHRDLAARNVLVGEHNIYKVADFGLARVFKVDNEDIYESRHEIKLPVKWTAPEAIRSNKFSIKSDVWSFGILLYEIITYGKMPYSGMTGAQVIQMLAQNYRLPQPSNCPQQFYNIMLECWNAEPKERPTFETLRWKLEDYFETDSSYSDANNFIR
UniProt O96017, sequence (whole entry, looked up): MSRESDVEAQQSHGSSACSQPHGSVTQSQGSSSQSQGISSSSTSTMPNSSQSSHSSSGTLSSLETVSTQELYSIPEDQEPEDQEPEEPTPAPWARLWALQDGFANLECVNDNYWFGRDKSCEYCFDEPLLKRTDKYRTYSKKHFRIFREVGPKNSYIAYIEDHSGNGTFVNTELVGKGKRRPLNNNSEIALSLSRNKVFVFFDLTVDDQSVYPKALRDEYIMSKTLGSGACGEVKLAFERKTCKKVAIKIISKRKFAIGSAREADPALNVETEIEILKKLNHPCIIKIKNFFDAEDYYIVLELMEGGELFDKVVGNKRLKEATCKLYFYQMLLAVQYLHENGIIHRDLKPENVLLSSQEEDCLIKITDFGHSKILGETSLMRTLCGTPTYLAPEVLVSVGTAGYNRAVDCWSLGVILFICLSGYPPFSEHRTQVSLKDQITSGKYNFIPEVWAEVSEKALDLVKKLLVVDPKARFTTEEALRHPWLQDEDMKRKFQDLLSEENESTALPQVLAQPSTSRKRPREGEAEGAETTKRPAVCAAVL
UniProt Q92630, sequence (whole entry, looked up): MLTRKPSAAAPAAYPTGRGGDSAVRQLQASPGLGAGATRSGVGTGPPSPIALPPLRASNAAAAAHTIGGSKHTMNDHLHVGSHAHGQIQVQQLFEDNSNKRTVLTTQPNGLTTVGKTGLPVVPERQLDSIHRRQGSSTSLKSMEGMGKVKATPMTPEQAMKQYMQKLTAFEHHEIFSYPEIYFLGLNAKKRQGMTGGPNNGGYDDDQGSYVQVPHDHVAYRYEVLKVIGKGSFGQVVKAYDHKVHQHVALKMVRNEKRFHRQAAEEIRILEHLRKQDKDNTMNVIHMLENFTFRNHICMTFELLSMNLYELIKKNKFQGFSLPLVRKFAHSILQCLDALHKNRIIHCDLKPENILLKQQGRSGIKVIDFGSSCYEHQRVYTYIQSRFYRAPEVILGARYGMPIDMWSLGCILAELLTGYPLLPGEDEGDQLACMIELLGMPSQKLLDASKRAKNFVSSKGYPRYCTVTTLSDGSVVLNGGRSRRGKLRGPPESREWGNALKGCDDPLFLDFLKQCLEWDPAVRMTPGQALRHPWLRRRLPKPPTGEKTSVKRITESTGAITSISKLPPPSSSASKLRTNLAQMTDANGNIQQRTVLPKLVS

Sample 1
Target: Beta-1 adrenergic receptor (ADRB1, Homo sapiens, UniProt P08588)
UniProt P08588, sequence (whole entry, looked up): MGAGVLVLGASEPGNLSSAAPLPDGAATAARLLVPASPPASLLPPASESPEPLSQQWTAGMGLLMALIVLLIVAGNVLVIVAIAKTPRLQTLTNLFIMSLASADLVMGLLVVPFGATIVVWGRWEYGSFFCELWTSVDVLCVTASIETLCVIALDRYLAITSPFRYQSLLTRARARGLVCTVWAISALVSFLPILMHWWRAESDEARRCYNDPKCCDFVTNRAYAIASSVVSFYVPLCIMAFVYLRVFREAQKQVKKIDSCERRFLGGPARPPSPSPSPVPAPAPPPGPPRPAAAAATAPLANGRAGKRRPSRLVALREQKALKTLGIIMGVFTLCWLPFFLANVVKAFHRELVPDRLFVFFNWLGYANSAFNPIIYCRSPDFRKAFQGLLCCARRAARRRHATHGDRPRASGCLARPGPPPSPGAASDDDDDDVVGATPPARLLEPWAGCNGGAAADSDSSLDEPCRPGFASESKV
Action: antagonist
| SMILES | IC50 |
| --- | --- |
| O=C(O)c1ccnc(-c2ccnc(NCC(O)c3ccccc3Cl)n2)c1 (stereo not drawn) | ≥ 100 µM |
| CC1(C)CC(=O)c2cc(C(=O)Nc3ccc(F)cc3)c(O)nc2C1 | ≥ 100 µM |
| CCOC(=O)COc1ccc2c(c1)C[C@@H](NC[C@H](O)c1cccc(Cl)c1)CC2 | ≥ 100 µM |

Sample 2
Compound: O=C(NS(=O)(=O)c1ccc(NCC2CCOCC2)c([N+](=O)[O-])c1)c1ccc(N2CCN(Cc3ccc(C(F)(F)F)cc3-c3ccc(Cl)cc3)CC2)cc1Oc1cnc2[nH]ccc2c1
Effect on: cell-free assay
Technique: competition with immobilised ligand
Concentration: 1 µM
| target | remaining binding [%] |
| --- | --- |
| Leucine-rich repeat serine/threonine-protein kinase 2 (LRRK2, Homo sapiens, UniProt Q5S007) | 100 |
| Tyrosine-protein kinase FRK (FRK, Homo sapiens, UniProt P42685) | 100 |
| Fibroblast growth factor receptor 3 (FGFR3, Homo sapiens, UniProt P22607) | 100 |
| Ephrin type-A receptor 4 (EPHA4, Homo sapiens, UniProt P54764) | 100 |
| Dual specificity tyrosine-phosphorylation-regulated kinase 2 (DYRK2, Homo sapiens, UniProt Q92630) | 100 |
| Mitogen-activated protein kinase 8 (MAPK8, Homo sapiens, UniProt P45983) | 78 |
| Dual specificity testis-specific protein kinase 1 (TESK1, Homo sapiens, UniProt Q15569) | 100 |
| Cyclin-dependent kinase-like 2 (CDKL2, Homo sapiens, UniProt Q92772) | 100 |
| Cyclin-dependent kinase-like 3 (CDKL3, Homo sapiens, UniProt Q8IVW4) | 95 |
| NT-3 growth factor receptor (NTRK3, Homo sapiens, UniProt Q16288) | 100 |
| Serine/threonine-protein kinase Chk2 (CHEK2, Homo sapiens, UniProt O96017) | 95 |

Single results of other studies
| Molecule | tested on | assay | system | setting | scale | endpoint | value |
| --- | --- | --- | --- | --- | --- | --- | --- |
| CCN(CCn1cccn1)Cc1[nH]nc(C)c1Cl | – | – | mouse, microsomes or S9 | 2 µM, 0.5 h | – | remaining compound | 13% |
| SRP14 (Homo sapiens, UniProt P37108) | SRP9 (Homo sapiens, UniProt P49458) | cross-linking MS | cell fractions | added: DMTMM | – | cross-linked residues | K95 to D54 |
| CC(=O)CCCCn1c(=O)c2c(ncn2C)n(C)c1=O | mouse MPNST tumor cells | high-content immunofluorescence imaging, measured: nuclear SOX9 | – | 10 µM, 12 h, mean of 2 replicates | baseline: DMSO control, higher = more nuclear SOX9 | nuclear SOX9 intensity | 98.7 % of DMSO |
| Oc1ccc(/C=C/c2cc(O)cc(O)c2)cc1 | Sarcocystis neurona | parasite growth | – | 10 µM, 96 h | – | inhibition | -12.7% |
| MTCL2 (Homo sapiens, UniProt O94964) | SPTAN1 (Homo sapiens, UniProt Q13813) | cross-linking MS | cell fractions | added: DHSO | – | cross-linked residues | E342 to E618 |
| CC(C)(C)Nc1nc(Nc2ccc(C(N)=O)cc2)cc(N)c1C#N | mouse MPNST tumor cells | high-content immunofluorescence imaging, measured: nuclear SOX9 | – | 10 µM, 12 h, mean of 2 replicates | baseline: DMSO control, higher = more nuclear SOX9 | nuclear SOX9 intensity | 153 % of DMSO |
| PCNT (Homo sapiens, UniProt O95613) | ADCY4 (Homo sapiens, UniProt Q8NFM4) | cross-linking MS | cell fractions | added: DMTMM | – | cross-linked residues | E874 to K821 |
| COc1cccc(-c2cn3ncnc3n2Cc2cccc(Br)c2)c1 | – | – | mouse, microsomes or S9 | 2 µM, 0.5 h | – | remaining compound | 1.76% |
| CS(=O)(=O)Nc1ccc([N+](=O)[O-])cc1Oc1ccccc1 | mouse MPNST tumor cells | high-content immunofluorescence imaging, measured: nuclear SOX9 | – | 10 µM, 12 h, mean of 2 replicates | baseline: DMSO control, higher = more nuclear SOX9 | nuclear SOX9 intensity | 108 % of DMSO |
| RFC4 (Homo sapiens, UniProt P35249) | RFC3 (Homo sapiens, UniProt P40938) | cross-linking MS | cell fractions | added: DSSO | – | cross-linked residues | K255 to K20 |

For quick reference, copied from above (sample 2):
| target | remaining binding [%] |
| --- | --- |
| Dual specificity tyrosine-phosphorylation-regulated kinase 2 (DYRK2, Homo sapiens, UniProt Q92630) | 100 |
| Dual specificity testis-specific protein kinase 1 (TESK1, Homo sapiens, UniProt Q15569) | 100 |
